Assay results from different studies.
Numbered parts are unrelated; each lists some results of a single study. Changes are numbered by the printed parent chain.

Set 1 — method: protein binding microarray; molecule type: double-stranded DNA, one strand shown; matrix: in vitro; tested at: not given; relative to: not given; reading: higher = stronger binding
Target: Histone acetyltransferase KAT6A, both winged helices, GST fusion (KAT6A, Homo sapiens, UniProt Q92794, residues 1-181)
Notes: 8-mer, flanks averaged, mean of 2 arrays, mostly near background
Construct (chain): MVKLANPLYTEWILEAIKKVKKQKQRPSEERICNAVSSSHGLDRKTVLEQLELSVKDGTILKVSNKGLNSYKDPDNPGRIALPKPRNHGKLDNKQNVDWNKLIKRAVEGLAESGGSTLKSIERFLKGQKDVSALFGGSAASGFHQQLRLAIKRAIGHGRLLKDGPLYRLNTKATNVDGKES
Oligonucleotide | E-score
AATTTCGA | -0.0124
GTCCGACA | 0.165
GAGTAGCC | -0.0441
CTGCATGC | 0.0566
GAGAGTTA | -0.258
CTTAGCCC | -0.039
AGGATTAT | -0.189
GTCTCGCA | -0.0497
AGGACCAG | -0.135
CCCGGACA | 0.202
CCGAACGC | 0.215
CCATTGGG | -0.131
GCAACTAA | -0.00899
CAGCTTAA | -0.0297
AACACCTA | -0.09
ACCTTATC | -0.0677
CGGTACCA | 0.0227
AAGCCAGA | -0.0316
TCCCGGAA | 0.166
AAAGGGCT | -0.212
ATCCAGGA | -0.0703
CGTAGCTA | -0.143
ATGGAAGA | -0.174

Set 2 — method: RNA Bind-n-Seq; molecule type: RNA; matrix: in vitro; tested at: 365 nM; relative to: no-protein control; reading: higher = stronger binding
Target: RNA binding protein fox-1 homolog 2, RRM domain, GST-SBP tag (RBFOX2, Homo sapiens, UniProt O43251-10, residues 100-194)
Notes: natural RNA segment, single round, ends assumed
Constant ends, left off below: GGGAGUUCUACAGUCCGACGAUC … UGGAAUUCUCGGGUGCCAA
Construct (chain): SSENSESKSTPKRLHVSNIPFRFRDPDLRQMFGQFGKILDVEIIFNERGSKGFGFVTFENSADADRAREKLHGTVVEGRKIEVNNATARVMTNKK
Oligonucleotide | RBNS enrichment (R)
UGGGUUUCUAGGGAAUAUGGCUCAGUAGGGCCUGCCCCUUCAAGGGCAGCAAGAACGAAGCAGGAUGUUGUCACUCCCGUCUGAAUAAAGCUCCAUGAGCUGGGUUGGAA | 0.602
UAAAGGUGUCCAAGGCAGCUGCAGAUUUGAUGGCCUACUGUGAAGCACAUGCCAAGGAAGACCCCCUCCUGACCCCUGUUCCGGCUUCAGAAAACCCGUUUAGGGAGAAG | 0.172
UCGACUCCACACCCUGCCGCUACUUCACGUGAGAGGCUGCAGGAACAGGUGGGCUGCCGCCCAUGGAACCGGUGGCUGUUUCUCUACCCUUCACAUCAAGCUGGCCUUGC | 0.435
UGUGUUCAAUAUCAGCUUUGAUAAUUGUGUACCUUAAGAUAUUGAAGGAGAAAAUAGAUAAUUUACAAGAUAUUAUUAAUUUUUAUUUAUUUUUCUUGGGAAUUGAAAAA | 1.26
ACACUCCCGUGAGUCCUGUGGUCAGGGUUUCAGGAUAGGAGGUGGAGGUUUGGGUUAACGUGGGAAAAUGUUCUUGCUUUGACACAAGGAAGUACUGAGUGGCUGCACCG | 0.463
CCAGGGCAUGGGGGCAAAUAUGACCCAGUUUUGGGAACACCGACAAACCCAGCCCUGGCGCUGAGCCUCUCUACCCCAGGUCAGACGGACAGAAAGACAGAUCACAGGUA | 0.272
UGCUGUUGCACACUGAUUGCUGAGGGUGCAUCAAUUACAAGCAUUGAAUACUCCAUCCCCUUCCCUCCCAGUGAAUGGAAUGAGAAAAGCCUUCUUCCUUUGCUUCAGGC | 2.18
UGGGCCACUAGAUGGAGUAUCCUGGGCCUUUGUAGCAUAGCUCUUCUCUGGAGCACCCUAUUUGCUUGGCUCUUUCUGGAAGUAGGUCUCACCCAUGAGGGACAACAGGU | 0.692
UACAGUACCAAAUGAUUGACUCAGGAUUGUUUUUCCCAUAUUGAUAUGCUGGCAAUAUAGGAUGGUAUGUAAUGGACAGAACUGAUGCAGAUGGUUGAAUGCGCUUGUAC | 13.8
AAACUUUGUAUUAAUGUGUUAAGUGCAGGAGACAUUGGUAUUCUGGGCACCUUCCUAAUAUGCUUUACAAUCUGCACUUUAACUGACUUAAGUGGCAUUAAACAUUUGAG | 0.407
ACUCUGCAGUGUUGAUUUUUUAAAGUAGUUUUCUGCAAUGAGCUUUUAGUCUAAGGAAAGCAUAGAUGAAGCAAUACUUUCCUUCUUUGAUGAAAAGCCUAGAAAUUAGU | 0.766
UCCCACAGGUGAGCAGGGCUCCUGUCCACCAGCACACUCAGUUCUCUUCCCUGCAGUGUUUUCAUUUUAUUUUAGCCAAACAUUUUGCCUGUUUUCUGUUUCAAACAUGA | 2.3

Set 3 — method: RNA Bind-n-Seq; molecule type: RNA; matrix: in vitro; tested at: 100 nM; relative to: input RNA pool; reading: higher = stronger binding
Target: RING finger protein unkempt homolog, zinc fingers 1-6, SBP tag (UNK, Homo sapiens, UniProt Q9C0B0, residues 30-357)
Sequence of UniProt Q9C0B0 (30-357, looked up): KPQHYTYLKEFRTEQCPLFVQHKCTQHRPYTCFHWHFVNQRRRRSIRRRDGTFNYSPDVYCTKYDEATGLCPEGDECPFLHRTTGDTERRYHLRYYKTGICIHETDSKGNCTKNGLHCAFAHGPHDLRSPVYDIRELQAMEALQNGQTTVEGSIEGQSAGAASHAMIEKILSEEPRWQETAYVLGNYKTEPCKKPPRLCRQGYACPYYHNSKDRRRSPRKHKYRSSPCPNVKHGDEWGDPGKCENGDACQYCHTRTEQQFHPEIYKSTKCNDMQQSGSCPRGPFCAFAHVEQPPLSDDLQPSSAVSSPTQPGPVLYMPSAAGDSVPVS
Notes: RNA with constant flanks, vertebrate orthologous sites, ends assumed
Constant ends, left off below: GGGAGUUCUACAGUCCGACGAUC … CAACAGAGGAUUGAGCAUCA
Oligonucleotide | bound/input enrichment [ratio]
UGUGUUGGUGCAGAGCGCUCUGUGCCAGUGCUCAUCAUCCCUUCUUCACACCACUGUCCCUAGUUAUAGGAAUUUAAUAUUUUUAAAAGUUUUACAUUGCUGUAUAUUCAAAGAUUUGUU | 0.921
GUUGGGUCAUGACCCUUACAGGUUAGGUCAUGAUGCUUACAGGUUAGGACAAGAUCCCUAUAGAUUAGGGCAUGAUCCAUAUAGACUAACUCCUGAUCCCUAUAGGAUGUCACCUAGACC | 0.47
AUUCAAACCUGUGGUACCAUGGCCUCACGUGGAAGGAGUAGAAGUGGAUUUAGAAUCCAUUCGAAGAAAAAACAAGGCUAAAAAUGCACAAGAACACCAUGCUGGCGGAGAUUCCCAAAA | 0.196
GUCCCUCAGUGACAGUGUGCCCUCUGUCGCCGACUCCCACUCCAGCCACUUCUCCGAGUUCAGCUGCUCGGACUUAGAAAGCAUGAGAACAUCGUGCAGUCACGGCUCCAGUGAUUGUCA | 0.564
CAGCUGAUUCACUAAUUGGGAGAGCUGCACAUAUAGCUGUUCUUGAUUCAGAAAUAUUUUUAGAAAAAUUUUUUCUGGUUGCUGCCCUCAAAUAUUUCCAGUAGUAUAAAAACAUUUUUA | 1.13
UGACUCCGGAGGGGAGAGCUCACAAACUCAAAGGAAAACUAGUAGAGUUUCUAAUAAAGCUAGGAAACGGAAGGACAAUUUUACAAAUGAGCGAUUAGAAAUGAAACAAAAGGAAGGCGG | 0.514
UGGUUUGUACAGGGGCCUUCUCUGUACUAGUUAGUUGUGGUUAUAAAACAAUUAGCAAAACGGCUUACAUUUGUAUUUAUUUACUAUUCCAUACUUCUUCCCUGCCUCGUUUUUCUUUCU | 0.627
AUAGAAGAACUCUUGCAGUCUUAGAUGUUAUAAAAUAUAUAUCUGAAUUGUAAGAGCUGUUUAGCACAUUUUUUUUUUUUAAGCACUUGUUUUGGGUACAAAGCAUUUCUGAAAGUUUGC | 2.02
UCUCUCAUUUUAUAUGUCCAAAAAAGGUUUUUGAAUUUUUAAAUACUUGCUAGUUUUGGUUAGCUCUGCCCUCAUGAAGUAUUACUAUAAUUCACCACAAACAGGUAUCUGUCUGAAUUA | 0.255
UUAUAUGGGCCUCGCAGAGUUGAAGUAAUUGAAGAAGAAACUUCACAGUAAUCAUCAUCUUAGUAUCUCUGACUAGGUGUGGAAUAAAUGUUGUUCGUUGAUCAUUUCUAAACCCCAGAG | 0.729
UGUCUUGGUUUGGGAUAGAGGGGAGGGAGGGGCAGGACAGUGUGGAAUCUCUAGGGUGUAUGGGUAGAUAGGCUGCACGGUUAGUUCUAAUUGGGCCUUUAUGUUAAUCUCUGGGGGGUG | 0.642

Set 4 — target: FOSL1, bZIP domain (human); method: DHFR protein complementation; matrix: yeast; relative to: wild-type JUN-FOS pair; reading: higher = stronger binding
Notes: single substitutions, most at no-binding floor
Starting sequence: JUN, bZIP domain (human); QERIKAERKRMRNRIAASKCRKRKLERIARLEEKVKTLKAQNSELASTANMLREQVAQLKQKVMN; partner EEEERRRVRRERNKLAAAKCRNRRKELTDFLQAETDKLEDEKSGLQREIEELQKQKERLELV
Substitution | binding fitness [natural log]
M51R | -0.342
E33V | -0.779
L52E | -1.42
R53Y | -1.25
T37Q | -0.176
R30G | -0.314
T37A | -0.305
M51L | -0.292
Q41G | -0.63
A29W | -0.668
Q55W | -1.05
S43T | -0.322
A29Y | -0.671
E32G | -0.612
N42I | -0.306
E44F | -0.782
T37D | -0.386
M51W | -0.503
I28Q | -0.487
Q41T | -0.517
L38R | -1.39

Set 5 — method: RNA Bind-n-Seq; molecule type: RNA; matrix: in vitro; tested at: 200 nM; notes: whole 134-nt RNA, ends assumed; added: 150 mM KCl; relative to: input library; reading: higher = stronger binding
Target: Ras GTPase-activating protein-binding protein 1, full length (G3BP1, Homo sapiens, UniProt Q13283)
Sequence of UniProt Q13283 (whole entry, looked up): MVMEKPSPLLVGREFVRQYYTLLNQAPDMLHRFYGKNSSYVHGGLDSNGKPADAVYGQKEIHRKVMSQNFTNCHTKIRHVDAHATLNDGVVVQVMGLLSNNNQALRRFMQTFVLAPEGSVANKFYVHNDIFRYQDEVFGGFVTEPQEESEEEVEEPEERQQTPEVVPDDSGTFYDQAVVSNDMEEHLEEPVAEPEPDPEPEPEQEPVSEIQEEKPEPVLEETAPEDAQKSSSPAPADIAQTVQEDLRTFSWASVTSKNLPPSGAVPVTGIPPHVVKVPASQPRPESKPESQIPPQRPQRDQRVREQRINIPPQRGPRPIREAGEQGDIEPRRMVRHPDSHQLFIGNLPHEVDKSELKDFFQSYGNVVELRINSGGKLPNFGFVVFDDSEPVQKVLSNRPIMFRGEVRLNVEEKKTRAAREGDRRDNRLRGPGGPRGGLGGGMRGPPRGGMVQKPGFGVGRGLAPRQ
Constant ends, left off below: GGGAGUUCUACAGUCCGACGAUC … UGGAAUUCUCGGGUGUCAAGG
Oligonucleotide | log2 enrichment
CACAGGCAACACGCACCCACACAGACACAGAGGGAAGGGGUUGGGAUGGGGACAGGGUGCACAGCAGGGCGGGGUAGGACCCCAGCCCCU | 1.8
GCAGGAAGUAAAAACAAAUGGAAAUGCUUCGGAUAGUGGCAGGGGUGGGGGAUGCUAAGGAAAGGGUGGGAUGGGAGUGGGUAAAGAGUU | 1.05
CACAGACAACACGCACCCACACAGACACAGAGGGAAGGGGUUGGGAUGGGGACAGGGUGCACAGCAGGGCGGGGUAGGACCCCAGGCCCU | 1.81
UCCUGUGCUACACAUCGUAUGUACCGAAUCGGAAAAAAAGGAAAAAAAGGGAAAAAAAGGAAAGUAUUAUGUUACGCCGUUCGGAUCUGC | -0.382
AAGUCCUGUGCUACACAUCGUAUGUACCGAAUCGGGUGGGUUUUUUUGGGUUUGGGAAAGUAUUAUGUUACGCCGUUCGGAUCUGCACUU | 0.101
CAAGUCCUGUGCUACACAUCGUAUGUACCGAAUCGGAAAAGGGAAAAGGGAAAAGGAAAGUAUUAUGUUACGCCGUUCGGAUCUGCACUU | -0.876
GUCCUGUGCUACACAUCGUAUGUACCGAAUCGGGAGGGAAAAAAAGGGAAAAAAAGGGAAAGUAUUAUGUUACGCCGUUCGGAUCUGCAC | -0.194
UCCUCAAGUCCUGUGCUACACAUCGUAUGUACCGAAUCGGGGUGGUGGGUGGAAAGUAUUAUGUUACGCCGUUCGGAUCUGCACUUCCAG | 0.69
UGGGGAGACUACGAUGACAGCGCCUUCAUGGAGCCCAGGUACCACGUCCGUGGAGAAGAUCUGGACAAGCUCCACAGAGCUGCCUGGUGG | -1.45
CUGUGCUACACAUCGUAUGUACCGAAUCGGGGAAAAAAAGGGAAAAAAAGGGAAAAAAAGGGAAAGUAUUAUGUUACGCCGUUCGGAUCU | -0.772
UGGGAGGUGGAUUUUGUUUAUUUUUUUAGCUCGUUUCCAGGGGUGGGAAUUUUUUUUUAAUAUGUGUCAUGAAUAAAGUUGUUUUUGAAA | 0.246
UGGCCCUGGUGGCAUGCGGGGAGGAAGAGGUGGCCUCAUGGAUCGUGGUGGUCCCGGUGGAAUGUUCAGAGGUAGCCGUGGUGGAGACAG | 0.173
ACCAUGCAGGUGGGCAUCUUUGGGAAGUGGGGCAAGGGGGGGACAGGGAGGGGGGUAACACUUUGGGAACAGGUGGUCCCAGGUCGUUUC | 1.28
ACCAUGCAGGUGGGCAUCUUUGGGAAGUGGGGCAAGGGGGGGAUAGGGAGGGGGGUAACUCUUUGGGAACAGGUGGUCCCAGGUCGUUUC | 1.3

Repeated from above (set 4):
Substitution | binding fitness [natural log]
Q41T | -0.517
E32G | -0.612
T37Q | -0.176
L38R | -1.39
T37D | -0.386
M51R | -0.342
E44F | -0.782
L52E | -1.42
A29W | -0.668
N42I | -0.306
A29Y | -0.671
R53Y | -1.25
Q55W | -1.05
